Assay results collected from several papers.
Each line is one published result; not all experiments were run side by side. Numbers after ± are the reported error.

| Compound | test | system | setting | tissue uptake |
| --- | --- | --- | --- | --- |
| N#C[C@@H]1CCCN1C(=O)CNC(=O)c1ccnc2ccc(OCCCN3CCN(C(=O)CCc4ccc(O)c(CN5CCN6CC(=O)[O][Al-]([18F])([O]C(=O)C5)[O]c5ccc(CCC(=O)N7CCN(CCCOc8ccc9nccc(C(=O)NCC(=O)N%10CCC[C@H]%10C#N)c9c8)CC7)cc5C6)c4)CC3)cc12 (some centres unmarked) | – | BALB/c nude mice, U-87 MG xenograft, muscle | 1 h, blocking, together with: DOTA-FAPI-04 40 nmol/mouse co-injected | 1.55 ± 0.24 %ID/g |
| O=C([O-])CN1CCN(CC(=O)[O-])CCN(CC(=O)NC[C@H]2CC[C@H](C(=O)N[C@H](Cc3cnc4ccccc4c3)C(=O)NCCCC[C@H](NC(=O)N[C@@H](CCC(=O)O)C(=O)O)C(=O)O)CC2)CCN(CC(=O)[O-])CC1.[64Cu+2] | ex vivo gamma counting | 22Rv1 tumour-bearing mice, heart | intravenous, 0.74 MBq, 24 h post-injection | 5.07 %ID/g |
| CCCC[C@H](NC(=O)COCCOCCNC(=O)CN1CCN(CC(=O)O)CCN(CC(=O)O)CC1)C(=O)N[C@H]1CC(=O)NCCCC[C@@H](C(N)=O)NC(=O)[C@H](Cc2c[nH]c3ccccc23)NC(=O)[C@H](CCCNC(=N)N)NC(=O)[C@@H](Cc2ccccc2)NC(=O)[C@H](Cc2c[nH]cn2)NC1=O [fluorine-18 labelled] | – | C57 mice B16-F10 melanoma, muscle | intravenous, 0.37 MBq, 2 h | 0.21 ± 0.34 %ID/g |
| N#C[C@@H]1CCCN1C(=O)CNC(=O)c1ccnc2ccc(OCCCN3CCN(C(=O)CCc4ccc5c(c4)CN4CCN6CC(=O)[O][68Ga-]([O]C(=O)C4)([O]5)[O]c4ccc(CCC(=O)N5CCN(CCCOc7ccc8nccc(C(=O)NCC(=O)N9CCC[C@H]9C#N)c8c7)CC5)cc4C6)CC3)cc12 | – | BALB/c nude mice, U-87 MG xenograft, blood | 1 h, blocking, together with: DOTA-FAPI-04 40 nmol/mouse co-injected | 1.1 ± 0.19 %ID/g |
| Cc1cc(C)n(CCN(CCN)CCCCCCNC(=O)[C@@H](N)Cc2c[nH]cn2)n1.[99Tc+].[C-]#[O+].[C-]#[O+].[C-]#[O+] | – | BALB/c nude mice, MCF7 xenograft, lung | intravenous, 4 h | 0.4 ± 0.08 %IA/g |
| O=C([O-])CN1CCN(CC(=O)O)CCN(CC(=O)[O-])CCN(CC(=O)NCC2CCC(C(=O)NC(Cc3ccc4ccccc4c3)C(=O)NCCCCC(NC(=O)NC(CCC(=O)O)C(=O)O)C(=O)O)CC2)CC1.[212Pb+2] (centres unmarked) | – | athymic mice, C4-2 prostate cancer xenograft, spleen | intravenous, 2 h, 212Pb-labelled | not detected |
| O=C(NCC1OC2CCC=CCCC2O1)c1ccc(COCCOCCOCC[18F])cc1 (centres unmarked) | – | healthy female BALB/c nude mice, spleen | intravenous, 7.4 MBq per mouse, 30 min | 2.7 ± 0.01 %ID/g |
| Cc1cc(C)n(CCN(CCN)CCCCCCNC(=O)[C@@H](N)Cc2c[nH]c3ccccc23)n1.[99Tc+].[C-]#[O+].[C-]#[O+].[C-]#[O+] | – | BALB/c nude mice, A549 xenograft, heart | intravenous, 4 h | 0.53 ± 0.06 %IA/g |
| CC(C)C[C@H](NC(=O)[C@@H](CCCCNC(=O)[C@@H](Cc1ccccc1)NC(=O)CCCCCCCNC(=O)CN1CCN(CC(=O)O)CCN(CC(=O)O)CCN(CC(=O)O)CC1)NC(=O)[C@H](Cc1ccc(O)cc1)NC(=O)[C@H](CO)NC(=O)[C@H](Cc1c[nH]c2ccccc12)NC(=O)[C@H](Cc1c[nH]cn1)NC(=O)[C@@H]1CCC(=O)N1)C(=O)N[C@@H](CCCNC(=N)N)C(=O)N1CCC[C@H]1C(=O)NCC(N)=O [indium-111 labelled] | – | male athymic nude mice, DU-145 xenograft, tumour | intravenous, 1 h, together with: 10 µg unlabelled blocking peptide | 0.41 ± 0.23 %ID/g |
| COc1ccc(Nc2nc(Nc3ccc(OCCOCC[18F])cc3)ncc2Br)cc1 | – | ICR mice, S180 tumour, brain | intravenous, 30 min, together with: PF-562271 33 mg/kg oral 1 h before | 1.96 ± 0.2 %ID/g |
| CCCC[C@H](NC(=O)CNC(=O)CNC(=O)[C@H](CCCCNC(=O)[C@H](CC(N)=O)NC(=O)C(C)c1ccc(CC(C)C)cc1)NC(=O)CN1CCN(CC(=O)O)CCN(CC(=O)O)CCN(CC(=O)O)CC1)C(=O)N[C@H]1CC(=O)NCCCC[C@@H](C(N)=O)NC(=O)[C@H](Cc2c[nH]c3ccccc23)NC(=O)[C@H](CCCNC(=N)N)NC(=O)[C@@H](Cc2ccccc2)NC(=O)[C@H](Cc2c[nH]cn2)NC1=O (some centres unmarked) [lutetium-177 labelled] | – | C57 mice, tumour-bearing, skin | 2 h | 1.31 ± 0.55 %ID/g |
| CCCC[C@H](NC(=O)CCCCCCCNC(=O)CN1CCN(CC(=O)O)CCN(CC(=O)O)CC1)C(=O)N[C@H]1CC(=O)NCCCC[C@@H](C(N)=O)NC(=O)[C@H](Cc2c[nH]c3ccccc23)NC(=O)[C@H](CCCNC(=N)N)NC(=O)[C@@H](Cc2ccccc2)NC(=O)[C@H](Cc2c[nH]cn2)NC1=O [fluorine-18 labelled] | – | C57 mice B16-F10 melanoma, brain | intravenous, 0.37 MBq, 0.5 h | 0.12 ± 0.04 %ID/g |
| CCCC[C@H](NC(=O)CNC(=O)CNC(=O)[C@H](CCCCNC(=O)[C@H](CC(=O)O)NC(=O)C(C)c1ccc(CC(C)C)cc1)NC(=O)CN1CCN(CC(=O)O)CCN(CC(=O)O)CCN(CC(=O)O)CC1)C(=O)N[C@H]1CC(=O)NCCCC[C@@H](C(N)=O)NC(=O)[C@H](Cc2c[nH]c3ccccc23)NC(=O)[C@H](CCCNC(=N)N)NC(=O)[C@@H](Cc2ccccc2)NC(=O)[C@H](Cc2c[nH]cn2)NC1=O (some centres unmarked) [lutetium-177 labelled] | – | C57 mice, tumour-bearing, tumor | intravenous, 0.037 MBq, 4 h | 23.9 ± 2.08 %ID/g |
| O=C(NCC1OC2CCC=CCCC2O1)c1ccc([18F])nc1 (centres unmarked) | – | healthy female BALB/c nude mice, bladder | intravenous, 7.4 MBq per mouse, 5 min | 3.8 ± 1.9 %ID/g |

Excerpt of the above:
| Compound | test | system | setting | tissue uptake |
| --- | --- | --- | --- | --- |
| CCCC[C@H](NC(=O)COCCOCCNC(=O)CN1CCN(CC(=O)O)CCN(CC(=O)O)CC1)C(=O)N[C@H]1CC(=O)NCCCC[C@@H](C(N)=O)NC(=O)[C@H](Cc2c[nH]c3ccccc23)NC(=O)[C@H](CCCNC(=N)N)NC(=O)[C@@H](Cc2ccccc2)NC(=O)[C@H](Cc2c[nH]cn2)NC1=O [fluorine-18 labelled] | – | C57 mice B16-F10 melanoma, muscle | intravenous, 0.37 MBq, 2 h | 0.21 ± 0.34 %ID/g |
